Results from different studies.
Protocols differ between the studies behind these lines. ± marks the error that the study gave.

SMILES	organism	assay	system	setting	scale	measurement	result
O=[N+]([O-])c1ccc(N2CCC(NCCC(O)c3ccc(F)c4ccccc34)CC2)c(C(F)(F)F)c1 (centres unmarked)	Salmonella typhimurium	SOS/umu test	TA1535/pSK1002	0.008 mg/mL, 4 h, without S9, full range	–	survival	50%
CC(=O)N1CCC(C(=O)N2CCN3C(=O)c4cc(-c5ccccc5)ccc4NC(=O)C3C2)CC1 (centres unmarked)	Salmonella typhimurium	–	TA1537	500 µg/plate	baseline: vehicle	fold increase in revertants	1.2
[Cl-].[Cl-].[Pt+2].[Ru+2].c1ccc(-c2nc3ccccc3nc2-c2ccccn2)nc1.c1cnc2c(c1)ccc1cccnc12.c1cnc2c(c1)ccc1cccnc12	Danio rerio	–	embryos	30 µM, 96 h	–	survival rate	80 ± 1.6%
O=[N+]([O-])c1ccc(NC2CCNCC2)c(C(F)(F)F)c1	Salmonella typhimurium	SOS response, SOS/umu test	TA1535/pSK1002, TGA medium	0.001 mg/mL, 4 h, together with: rat liver S9	baseline: untreated	induction factor	0.6
[Cl-].[Cl-].[Pt+2].[Ru+2].c1ccc(-c2nccnc2-c2ccccn2)nc1.c1cnc2c(c1)ccc1cccnc12.c1cnc2c(c1)ccc1cccnc12	Danio rerio	–	embryos	90 µM, 96 h	–	hatching rate	3.33 ± 3.1%
CNC(=O)c1c(N(C)N=O)ncn1C	Salmonella typhimurium	mutagenicity, Ames plate incorporation	TA100	150 µg/plate, without S9, methanol	–	revertant colonies per plate	144 ± 20
Nc1nc2c(ncn2COCCO)c(=O)[nH]1	Herpes simplex virus 2	–	BEAS-2B, compound-resistant	–	baseline: CC50 over IC50	therapeutic index	2.16
COc1ccc(C[C@H](NC(=O)[C@H](C)NC(=O)CN2CCOCC2)C(=O)N[C@@H](Cc2ccccc2)C(=O)C2(C)CO2)cc1 (stereo in doubt)	Plasmodium falciparum	–	Cam WT, artemisinin-sensitive	–	baseline: HEK-293T CC50 over IC50	selectivity ratio	> 2240
[Cl-].[Cl-].[Pt+2].[Ru+2].c1ccc(-c2nc3cc4ccccc4cc3nc2-c2ccccn2)nc1.c1cnc2c(c1)ccc1cccnc12.c1cnc2c(c1)ccc1cccnc12	Danio rerio	–	embryos	30 µM, 0 h	–	survival rate	100%
CCCCc1ccc(CNc2nc(N(C)C)nc(N(C)C)c2/N=N/c2ccc(Cl)cc2)cc1	Ostrinia furnacalis	leaf dipping	–	50 mg/L, 96 h	–	mortality	70.3 ± 5.8%
CCCC[C@H](NC(=O)C1CN(C)C1)c1ncc(-c2cc3ccccc3nc2OC)[nH]1	Salmonella enterica serovar Typhimurium	–	TA1535, TA98, TA100	without S9, toxicity-limited	–	highest non-mutagenic dose	100 to 300 µg/plate
N#C[C@@]1(n2ccc(N)nc2=O)O[C@H](CO)[C@@H](O)[C@H]1O	Salmonella typhimurium	–	TA1537	50 µM, without S9	–	viability	92%
COc1cccc(-c2n[nH]c(SCc3ccccn3)n2)c1OC	Escherichia coli	Ames test, preincubation	WP2 uvrA	0.25 mg/plate, with rat liver S9	–	revertant colonies per plate	24
OC(CCN1CC=C(c2ccc(F)cc2)CC1)c1ccc(F)c2ccccc12 (centres unmarked)	Salmonella typhimurium	genotoxicity, SOS/umu test	TA1535/pSK1002	0.001 mg/mL, 4 h, with S9, lower range	–	induction factor	0.7
Cc1cc(C(=O)NC(C)(C)COc2cccc3c2C(N)=NS(=O)(=O)N3)cc(C)n1	Salmonella typhimurium	Ames test, confirmatory	TA100	1000 µg/plate	baseline: solvent control	revertant ratio	0.9
O=[N+]([O-])c1ccc(N2CCN(CCC(O)c3ccc(F)cc3)CC2)c(C(F)(F)F)c1 (centres unmarked)	Salmonella typhimurium	genotoxicity, SOS/umu test	TA1535/pSK1002	0.063 mg/mL, 4 h, with S9, full range	–	induction factor	1.4
CN(N=O)c1ccc(F)cc1	Salmonella typhimurium and Escherichia coli	–	TA98, TA100, TA1535, TA1537, WP2uvrA pKM101, methanol	concentration not given, 3 days, together with: hamster S9 10%	–	toxic concentration	≥ 1500 µg/plate

A few entries again:
SMILES	organism	assay	system	setting	scale	measurement	result
O=[N+]([O-])c1ccc(N2CCN(CCC(O)c3ccc(F)cc3)CC2)c(C(F)(F)F)c1 (centres unmarked)	Salmonella typhimurium	genotoxicity, SOS/umu test	TA1535/pSK1002	0.063 mg/mL, 4 h, with S9, full range	–	induction factor	1.4
